Assay results gathered from unrelated publications.
Each line is one published result; not all experiments were run side by side.
Cell line: SK-OV-3

CC(C)(C)c1cc2c(O)c(c1)Cc1cc(C(C)(C)C)cc(c1OCC(=O)NCc1ccncc1)Cc1cc(C(C)(C)C)cc(c1O)Cc1cc(C(C)(C)C)cc(c1OCC(=O)NCc1ccncc1)COC2
inhibition (cell growth or viability, MTT; 15 µM, 72 h): 69%

COc1ccc2nc(Cl)c(-c3nc4cc(Br)ccc4[nH]3)cc2c1
IC50 (cell growth or viability, MTT; 48 h): 32700 nM

CC(C)(C)c1cc2c(O)c(c1)Cc1cc(C(C)(C)C)cc(c1OCC(=O)Nc1ccccn1)Cc1cc(C(C)(C)C)cc(c1O)Cc1cc(C(C)(C)C)cc(c1OCC(=O)Nc1ccccn1)COC2
inhibition (cell growth or viability, MTT; 15 µM, 72 h): 48%

Clc1nc2ccccc2cc1-c1nc2ccccc2[nH]1
IC50 (cell growth or viability, MTT; 48 h): > 100000 nM

CC(=O)c1cccc(NC2C(N)C(NC(=O)N(C)C)(C(C)OC(=O)C(C)(C)C)C(C)(O)C2(O)COC(=O)C(C)(C)C)c1 (stereo not drawn)
EC50 (cell growth or viability): 593 nM

COc1ccc(CC2COC(=O)C2Cc2ccc3c(c2)OCO3)cc1OC (mixture of isomers)
viability (MTT; concentration not given, 72 h): decreased

C=C(CC)C(=O)c1ccc(OCC(=O)NCCCCNC(=O)COc2ccc(C(=O)C(=C)CC)c(Cl)c2Cl)c(Cl)c1Cl
IC10 (cell growth, CCK-8; 72 h): ~1000 nM

CC/C=C\C/C=C\C/C=C\C/C=C\C/C=C\C/C=C\CCC(=O)Nc1ccn(C2OC(CO)C(O)C2(F)F)c(=O)n1 (stereo not drawn)
GI50 (cell growth or viability, SRB): 110 nM

COc1ccc2nc(Cl)c(-c3nc4cc(C)c(C)cc4[nH]3)cc2c1
IC50 (cell growth or viability, MTT; 48 h): 36900 nM

CC(C)(C)c1cc2c(O)c(c1)Cc1cc(C(C)(C)C)cc(c1OCC(=O)Nc1cccc3ncccc13)Cc1cc(C(C)(C)C)cc(c1O)Cc1cc(C(C)(C)C)cc(c1OCC(=O)Nc1cccc3ncccc13)COC2
inhibition (cell growth or viability, MTT; 15 µM, 72 h): 50%

COc1ccc2nc(Cl)c(-c3nc4cc(Cl)ccc4[nH]3)cc2c1
IC50 (cell growth or viability, MTT; 48 h): 8830 nM

CC(=O)OC[C@H]1O[C@@H](Sc2sc(C(=O)c3ccc(C)cc3)c(N)c2-c2nc3ccccc3s2)[C@H](OC(C)=O)[C@@H](OC(C)=O)[C@H]1OC(C)=O
growth (SRB; 10 µM, 48 h; relative to: untreated): 52.6%

CC(C)(C)c1cc2c(O)c(c1)Cc1cc(C(C)(C)C)cc(c1OCC(=O)NCc1cccnc1)Cc1cc(C(C)(C)C)cc(c1O)Cc1cc(C(C)(C)C)cc(c1OCC(=O)NCc1cccnc1)COC2
inhibition (cell growth or viability, MTT; 15 µM, 72 h): 83%

CCC(=C(c1ccc(Cl)cc1)c1ccc(OCCCN(C)C)cc1)c1ccc(OC)cc1
GI50 (cell growth or viability): 10000 nM

Cc1cccc(O)c1C(=O)OCC1(O)C(Nc2cccc3ccccc23)C(N)C(NC(=O)N(C)C)(C(C)O)C1(C)O (stereo not drawn)
EC50 (cell growth or viability): 2440 nM

C=C(CC)C(=O)c1ccc(OCC(=O)NCCNC(=O)COc2ccc(C(=O)C(=C)CC)c(Cl)c2Cl)c(Cl)c1Cl
IC10 (cell growth, CCK-8; 72 h): ~1200 nM

Cc1ccc2nc(Cl)c(-c3nc4cc(Br)ccc4[nH]3)cc2c1
IC50 (cell growth or viability, MTT; 48 h): > 100000 nM

CC(=O)OC[C@H]1O[C@@H](Sc2sc(C(=O)c3ccc(Br)cc3)c(N)c2-c2nc3ccccc3s2)[C@H](OC(C)=O)[C@@H](OC(C)=O)[C@H]1OC(C)=O
growth (SRB; 10 µM, 48 h; relative to: untreated): 57.3%

CN[C@@H](C)C(=O)N[C@H]1CN(C(=O)Cc2ccccc2)CC[C@H]2CC[C@@H](C(=O)NCc3ccc(C(F)(F)F)cc3)N2C1=O
onset concentration (caspase-8, caspase-3, PARP cleavage, western blot; 24 h): ≥ 1 µM

Cc1ccc2nc(Cl)c(-c3nc4cc(Cl)ccc4[nH]3)cc2c1
IC50 (cell growth or viability, MTT; 48 h): > 100000 nM

CC(=O)c1cccc(NC2C(N)C(NC(=O)N(C)C)(C(C)O)C(O)C2(O)COC(=O)c2c(C)cccc2O)c1 (stereo not drawn)
EC50 (cell growth or viability): 7 nM

Some of these lines once more:
COc1ccc2nc(Cl)c(-c3nc4cc(C)c(C)cc4[nH]3)cc2c1
IC50 (cell growth or viability, MTT; 48 h): 36900 nM

CC(C)(C)c1cc2c(O)c(c1)Cc1cc(C(C)(C)C)cc(c1OCC(=O)Nc1cccc3ncccc13)Cc1cc(C(C)(C)C)cc(c1O)Cc1cc(C(C)(C)C)cc(c1OCC(=O)Nc1cccc3ncccc13)COC2
inhibition (cell growth or viability, MTT; 15 µM, 72 h): 50%

COc1ccc2nc(Cl)c(-c3nc4cc(Cl)ccc4[nH]3)cc2c1
IC50 (cell growth or viability, MTT; 48 h): 8830 nM
